Results pooled from the literature.
Several values in a cell are separate wells, animals, samples, runs or records. ± gives the spread as reported.
Chain of UniProt P33261 (whole entry, looked up): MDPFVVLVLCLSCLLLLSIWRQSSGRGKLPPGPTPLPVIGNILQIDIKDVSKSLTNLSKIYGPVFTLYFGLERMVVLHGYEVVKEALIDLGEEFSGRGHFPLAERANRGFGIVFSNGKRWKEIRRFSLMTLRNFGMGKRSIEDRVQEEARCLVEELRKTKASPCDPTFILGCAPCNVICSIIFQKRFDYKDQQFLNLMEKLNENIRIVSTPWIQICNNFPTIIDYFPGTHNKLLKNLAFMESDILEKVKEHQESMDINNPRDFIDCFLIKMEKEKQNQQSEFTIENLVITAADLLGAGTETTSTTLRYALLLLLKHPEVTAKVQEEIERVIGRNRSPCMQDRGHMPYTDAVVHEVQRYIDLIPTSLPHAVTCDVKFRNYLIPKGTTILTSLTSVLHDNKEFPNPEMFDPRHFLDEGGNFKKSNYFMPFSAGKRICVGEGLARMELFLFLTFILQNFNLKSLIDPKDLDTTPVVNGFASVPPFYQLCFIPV

Structure (SMILES) | target or system | test | system | setting | how to read | endpoint | value
C=C(NC(=O)c1csc(-c2nc3c(cc2O)-c2nc(cs2)C(=O)NC(C(C)O)C(=O)NC(=C(C)OC)c2nc(cs2)C(=O)NC2c4nc(cs4)C(=O)NC(COC(=O)c4c5c6c(cccc6n4O)COC(=O)C(OC4CC(C)(O)C(N(C)C)C(C)O4)C2OC5)c2nc-3cs2)n1)C(N)=O (stereo not drawn) | human hepatocytes | refers to: CYP3A4 | – | concentration not given, 3 days | relative to: negative control | mRNA level | < 4 fold
N=C(N)NCCC[C@@H]1NC(=O)[C@H](CCCNC(=N)N)NC(=O)[C@@H](CCCNC(=N)N)NC(=O)[C@@H](CCCNC(=N)N)NC(=O)[C@@H](C(c2ccccc2)c2ccccc2)NC(=O)[C@@H](Cc2c[nH]c3ccccc23)NC(=O)[C@@H](C(c2ccccc2)c2ccccc2)NC1=O | HEKa | cell growth or viability, MTS | – | 200 µg/mL, 24 h | – | viability | 49%
Nc1ncc(-c2cc(-c3cnn(CC(F)(F)F)c3)ncc2F)nc1C(=O)NC1CNCC(F)C1 (stereo not drawn) | TNK2 | KINOMEscan | – | 1 µM | relative to: DMSO control | remaining binding | 100%
C=CC(=O)Nc1cccc(Cn2ncc3cnc(Nc4cnn(CCOC)c4)nc32)c1 | WNK4 human | binding, KINOMEscan | – | 100 nM | lower = stronger binding | percent of control | 91%
COc1ccc(Cn2cc(CCO[C@@H]3O[C@H]4[C@H](OC[C@H]4O)[C@H]3O)nn2)cc1 | CAL-51 | cytotoxicity, CellTiter-Glo | – | up to 30 µM, 72 h | – | viability | not toxic
CC[C@H](C)C(=O)O[C@H]1C[C@@H](C)C=C2C=C[C@H](C)[C@H](CC[C@@H]3CC=CC(=O)O3)[C@H]21 | T84 | MTT | – | 50 µM, 24 h | – | viability reduction | ~30%
CCN(CC)CC#CCNc1ccnc2cc(Cl)ccc12 | Salmonella typhimurium | mini-Ames test | TA97a | 125.0 µg/well, without S9 | – | revertants | 5 revertants/well and 4 revertants/well
O=CCNCCOn1c(=O)n(OCCNCCO)c(=O)n(OCCNCCOn2c(=O)n(OCCNCCO)c(=O)n(OCCNCCO)c2=O)c1=O | HUVEC | cell growth or viability, MTT | – | 48 h | – | IC50 | 7.6 µg/mL
CC(C)NCCCn1c(Sc2cc(Cl)cc(Cl)c2)nc2c(N)ncnc21 | MDA-MB-468 | cytotoxicity, Alamar blue | – | 72 h | – | IC50 | 107 nM
O=S(=O)(NCc1ccncc1)c1ccc(C2CCCCC2)cc1 | MDCK | – | Caco-2 | 5 µM, 90 min, pH 7.4 | – | efflux ratio | 0.75
Cc1cc(Cl)cc(-c2ccnc3cc(CN4C(=O)C5C(C4=O)C5(C)C)sc23)c1C[C@@H]1CNCCO1 (stereo partly drawn) | CHP-212 | SRB | – | 0.3125 µM, single replicate | – | viability | 50.1% and 82.6% and 61.6%
CNS(=O)(=O)Nc1nccc(Cc2c(C)c3ccc(Oc4ncccc4F)cc3oc2=O)c1F | T84 | cell viability | – | 7 days | – | IC50 | > 1000 nM
Cc1ncsc1-c1ccc(C(C)NC(=O)C2CC(O)CN2C(=O)C(NC(=O)CCCCCCCCCCN2CCCC(Nc3ncc(Cl)c(Nc4ccccc4S(=O)(=O)C(C)C)n3)C2)C(C)(C)C)cc1 (stereo not drawn) | 22Rv1 | RNA-seq, refers to: ZKSCAN3 mRNA | – | concentration not given | relative to: DMSO | log2 fold change | -1.96
O=C1C2CC3CC1CC(C(=O)N1CCN(c4ccc([N+](=O)[O-])c5ncccc45)CC1)(C3)C2 | Salmonella typhimurium | Ames test | TA1535 | 0.78 µg/well, with S9 | relative to: vehicle | revertant fold increase | 1.6
CN1CCCNC(=O)c2cccc(c2)C(=O)NCCCN(C)CCCNc2cccc3c2C(=O)c2cccc(c2C3=O)NCCC1 | Ca9-22 | CCK-8 | – | 0.15 µM, 48 h | relative to: untreated | viability | 58.7%
CN(CCC#N)c1nc(NCC[C@H]2CCCN2C)nc2sc(-c3ccccc3)cc12 | RRCK (MDCK) | – | – | – | – | Papp | 3.1 ± 0.4 ×10⁻⁶ cm/s
COc1ccc(Cn2c(=O)n(O)c(=O)c3ccccc32)cc1 | MDCK | – | Caco-2 | 10 µM | – | Papp B→A | 2.2 ×10⁻⁶ cm/s
CC(C)(O)Cn1nc(-c2ccccc2)c2c(Cl)c(-c3ccccc3)nnc21 | MDCK (wild-type) | – | – | 10 µM, 1 h, pH 7.4 | – | Papp (A to B) | 20 ×10⁻⁶ cm/s
CC[C@H](C)[C@H](NC(=O)C[C@H](NC(=O)CN1CCN2CCN(CC1)CC(=O)[O][Al]([18F])[O]C(=O)C2)C(=O)O)C(=O)N[C@H]1CCc2cccc3c2N(C1=O)[C@H](C(=O)NCc1cn[nH]n1)C3 | MC-38 tumour model | – | host not given, lung | 30 min, tumour-bearing | – | tracer uptake | 1.91 %ID/g
O=c1c2sccc2n(CC2COc3ccccc3O2)c(=O)n1O (stereo not drawn) | MDCK | – | Caco-2 | 10 µM | – | efflux ratio | 2.8
Cc1cc(-c2ccc(C#N)cc2)cc(C)c1Oc1ccnc(Nc2ccc(C#N)cc2)n1 | MT4 uninfected | – | – | – | – | CC50 | 2080 ± 720 nM
C[C@@H]1O[C@@H](OC[C@H]2O[C@@H](Oc3c(-c4ccc(O)cc4)oc4cc(O)cc(O)c4c3=O)[C@H](O[C@@H]3O[C@@H](C)[C@H](O)[C@@H](O)[C@H]3O)[C@@H](O)[C@@H]2O)[C@H](O)[C@H](O)[C@H]1O | 3T3-L1 pre-adipocytes | MTT | – | 20 µM, 48 h | – | viability | 77.4 ± 8.26%
CNC(=O)C1CCCN(C(=O)C2CC3CCC2N3C(=O)[C@@H]2C[C@@H](O)CN2C(=O)NCc2cccc(Cl)c2F)C1 (mixture of isomers) | CYP2C19 (Homo sapiens, UniProt P33261) | enzyme activity, inhibitor, time-dependent inhibition | – | 0.617 µM, preincubated without NADPH | relative to: negative control | remaining activity | 102%
N=C(N)NCCC[C@@H]1NC(=O)[C@H](CCCNC(=N)N)NC(=O)[C@@H](CCCNC(=N)N)NC(=O)[C@@H](CCCNC(=N)N)NC(=O)[C@@H](Cc2ccc3ccccc3c2)NC(=O)[C@H](Cc2c[nH]c3ccccc23)NC(=O)[C@@H](Cc2ccc3ccccc3c2)NC1=O | HEKa | cell growth or viability, MTS | – | 200 µg/mL, 24 h | – | viability | 47 to 50%
O=c1c2ccccc2n(CC2CC2)c(=O)n1O | MDCK | – | Caco-2 | 10 µM | – | Papp A→B | 41.1 ×10⁻⁶ cm/s
COC1CN([C@H]2CC[C@H]([C@@]3(C)Oc4c(Cl)cc(C(=O)NCc5c(SC)cc(C)[nH]c5=O)c(C)c4O3)CC2)C1 | – | RNA-seq, refers to: CRIM1 mouse homolog | mouse, HT-1376 xenograft, whole blood | dose not given | relative to: vehicle | log2 fold change | 0.639
O=C1NC2(CC2)COc2ncc(F)cc2[C@H]2COCCN2c2ccn3ncc1c3n2 | CHL | chromosomal aberration test | – | 150 µg/mL, 4 h, with rat liver S9 | – | polyploid cells | 0%

A few entries again:
Structure (SMILES) | target or system | test | system | setting | how to read | endpoint | value
C=C(NC(=O)c1csc(-c2nc3c(cc2O)-c2nc(cs2)C(=O)NC(C(C)O)C(=O)NC(=C(C)OC)c2nc(cs2)C(=O)NC2c4nc(cs4)C(=O)NC(COC(=O)c4c5c6c(cccc6n4O)COC(=O)C(OC4CC(C)(O)C(N(C)C)C(C)O4)C2OC5)c2nc-3cs2)n1)C(N)=O (stereo not drawn) | human hepatocytes | refers to: CYP3A4 | – | concentration not given, 3 days | relative to: negative control | mRNA level | < 4 fold
O=C1NC2(CC2)COc2ncc(F)cc2[C@H]2COCCN2c2ccn3ncc1c3n2 | CHL | chromosomal aberration test | – | 150 µg/mL, 4 h, with rat liver S9 | – | polyploid cells | 0%
C=CC(=O)Nc1cccc(Cn2ncc3cnc(Nc4cnn(CCOC)c4)nc32)c1 | WNK4 human | binding, KINOMEscan | – | 100 nM | lower = stronger binding | percent of control | 91%
CC(C)(O)Cn1nc(-c2ccccc2)c2c(Cl)c(-c3ccccc3)nnc21 | MDCK (wild-type) | – | – | 10 µM, 1 h, pH 7.4 | – | Papp (A to B) | 20 ×10⁻⁶ cm/s
